Published values of several laboratories.
Protocols differ between the studies behind these lines. Numbers after ± are the reported error.

For `N#C/C(=C\c1cn(-c2ccccc2)nc1-c1cccc(Cl)c1)c1nc2ccccc2[nH]1`, “DPPH radical scavenging” read 52.8 ± 1.94% (100 µg/mL, 45 min).
Under “DPPH radical scavenging”, `CCCCCCCCCCCCCCc1sc(NC(=O)CN2CCC(O)CC2)nc1-c1ccccc1` is recorded as 17.5% (0.2 M, 1 h).
Under “DPPH radical scavenging”, `CCCCSc1nnc(-c2ccc(N)cc2)o1` is recorded as 77.4% (2 × IC50).
For `Cc1cc(O)c2c(c1)C(=O)c1cc3oc(=O)cc(-c4ccccc4)c3c(O)c1C2=O`, “DPPH radical scavenging” read 28.6% (100 µg/mL).
Under “DPPH radical scavenging”, `N#C/C(=C\c1cn(-c2ccccc2)nc1-c1ccc(Cl)cc1)c1nc2ccccc2[nH]1` is recorded as 52.5 ± 1.87% (100 µg/mL, 45 min).
`CCCCCCCCCCCCCCc1sc(NC(=O)CCN2CCC(O)CC2)nc1-c1ccccc1` — result for “DPPH radical scavenging”: 16.1% (0.2 M, 1 h).
`O=C(O)[C@H]1O[C@@H](Oc2c(-c3ccc(O)c(O)c3)oc3cc(O)cc(O)c3c2=O)[C@H](O)[C@@H](O)[C@@H]1O`: “DPPH radical scavenging” 82.9 ± 4.3% (100 µg/mL).
Under “DPPH radical scavenging”, `Cc1csc(NC(=O)CN2CCC(O)CC2)n1` is recorded as 13.5% (0.1 mM, 20 min).
`COc1cc(OC)c2c(c1)C(=O)c1cc3oc(=O)cc(-c4ccc(Cl)cc4)c3c(O)c1C2=O` — result for “DPPH radical scavenging”: 48.6% (100 µg/mL).
Under “DPPH radical scavenging”, `COc1ccc(-c2nn(-c3ccccc3)cc2/C=C(\C#N)c2nc3ccccc3[nH]2)cc1` is recorded as 53.8 ± 2.13% (100 µg/mL, 45 min).
`Cc1ccc(NC(=O)C2C(=O)C(c3ccccc3)c3ccc4c(c32)C(=O)c2ccccc2C4=O)cc1` (stereo not shown) — result for “DPPH radical scavenging”: 39.1% (100 µg/mL).
`CCOC(=O)Cc1csc(NC(=O)CCN2CCC(O)CC2)n1` — result for “DPPH radical scavenging”: 20.6% (0.2 M, 1 h).
Under “DPPH radical scavenging”, `Cc1ccc(-c2nn(-c3ccccc3)cc2/C=C(\C#N)c2nc3ccccc3[nH]2)cc1` is recorded as 46.5 ± 1.23% (100 µg/mL, 45 min).

A few entries again:
Under “DPPH radical scavenging”, `CCCCSc1nnc(-c2ccc(N)cc2)o1` is recorded as 77.4% (2 × IC50).
For `Cc1cc(O)c2c(c1)C(=O)c1cc3oc(=O)cc(-c4ccccc4)c3c(O)c1C2=O`, “DPPH radical scavenging” read 28.6% (100 µg/mL).
